Results collected from several papers.
Protocols differ between the studies behind these lines. Values joined by “and” are separate records of one study, mostly repeats; a detail may differ.
Target: Serine/threonine-protein kinase PAK 4 (PAK4, Homo sapiens, UniProt O96013)

The remaining activity of `Nc1ncc(-c2cc(-c3cnn(CC(F)(F)F)c3)ncc2F)nc1C(=O)NC1CNCC(F)C1` (stereo not shown) is reported as 99.8% (enzyme activity; 1 µM; reference: DMSO control).
For `C=CC(=O)N1Cc2nc(-c3cc(-c4cc(Cl)cnc4Cl)c(F)cc3F)n(-c3ccncn3)c2C1`, the inhibition was 7.7% (cell-free assay, inhibitor; 1 µM).
The remaining activity of `Cc1cccc(-c2ccc3nc(NC(=O)C4CCCCC4)nn3c2)c1` is reported as 96% (enzyme activity, Dundee kinase panel; 10 µM).
`CCN1CCN(Cc2ccc(C(=O)Nc3ccc(C)c(NCc4cnc5[nH]ccc5c4OC)c3)cc2C(F)(F)F)CC1` has a remaining binding of 100% (binding, competition with immobilised ligand; 1 µM).
`CN1CCN(Cc2ccc(NC(=O)c3cccc(C#Cc4cnc(N)c5ncccc45)c3)cc2C(F)(F)F)CC1` has a remaining binding of 100% (cell-free assay, competition with immobilised ligand; 0.5 µM).
`C=CC(=O)N1CCc2ccc(-n3c(=O)ccc4cnc5ccc(-c6cnn(C)c6)cc5c43)cc21` has a remaining binding of 100% (KINOMEscan; 1 µM; reference: DMSO control).
`CNS(=O)(=O)Nc1nccc(Cc2c(C)c3ccc(Oc4ncccc4F)cc3oc2=O)c1F` gave a remaining binding of 92% (cell-free assay, competition with immobilised ligand; 10 µM).
With `COc1ccc(C(=O)/C=C/c2ccccc2-c2c[nH]c3ccc(C#N)cc23)c(O)c1` the inhibition was -10% (enzyme activity, inhibitor; 20 µM).
With `Nc1nc(Nc2ccccc2)sc1C(=O)c1ccccc1` the remaining activity was 32% (enzyme activity, inhibitor; 10 µM).
For `Cc1c[nH]c2nccc(-c3ccc(C(=O)N[C@@H]4c5c(F)cc(C(F)F)cc5C[C@@H]4O)cn3)c12`, the remaining binding was 17% (binding, competition with immobilised ligand; 3 µM).
With `C=CC(=O)Nc1cccc(-c2cnc3[nH]cc(C(=O)NC(C)(C)C)c3n2)c1` the inhibition was 13% and 14% (kinase activity; 0.1 µM).
With `COc1c(Cl)cccc1Nc1c(-c2ccncc2C#C[C@@]2(C)CCCN2C(=O)/C=C/CN(C)C)[nH]c2c1C(=O)NCC2` the remaining binding was 100% (cell-free assay, competition with immobilised ligand; 3 µM).
`c1ccc2c(Nc3cc(C4CCC4)[nH]n3)nc(Nc3ccc4nc[nH]c4c3)nc2c1` gave a remaining activity of 13% (enzyme activity, inhibitor; 0.25 µM).
`Cc1cccc(-c2ccc3nc(NC(=O)C4CCCO4)nn3c2)c1` (stereo not shown) gave a remaining activity of 111% (enzyme activity, Dundee kinase panel; 10 µM).
`CCn1cc(C(=O)O)c(=O)c2c(N)c(F)c(NC3CCCCC3)cc21` gave an inhibition of 24.6% (kinase activity; 0.1 µM, added: ATP at Km).
With `CNC1C[S+]2CC[S+]3CC[S+](C1)[Ru-4]321([N]=C=S)[n]2c3ccc(OC)cc3c3c4c(c5cc(F)c[n+]1c5c32)C(=O)NC4=O` (stereo not shown) the remaining binding was 100% (KinomeScan; 0.1 µM; reference: untreated).
The remaining activity of `COc1c(OCCCN2CCOCC2)ccc2c1N=C(NC(=O)c1cnc(N)nc1)N1CCN=C21` is reported as 103% (kinase activity, inhibitor; 1 µM; reference: untreated control).
`Cc1nc2c(F)cc(-c3nc(Nc4ccc(CNC(=O)CCCCCCC(=O)NO)cc4)ncc3F)cc2n1C(C)C` gave an inhibition of 75% (enzyme activity, inhibitor; 1 µM).
`NC(=O)[C@@H](O)C[C@H]1CCc2sc3ncnc(O[C@H]4CC[C@H](N5CCOCC5)CC4)c3c21` has an inhibition of 4% (enzyme activity, inhibitor; 10 µM).
`Cc1cccc(O[C@H]2CCC[C@@H](C(C)CNCc3ccncc3)C2)c1` (relative stereo) has an inhibition of -15% (enzyme activity, inhibitor; 10 µM).
With `COc1cc(Nc2nccc(-c3cnn4nc(OC)ccc34)n2)cc(C(F)(F)F)c1` the remaining binding was 92% (binding, competition with immobilised ligand; 1 µM).
For `COc1ccc(NC(=O)Nc2ccc3c(c2)C(=O)N(C(C)CO)CC(C)C(CN(C)Cc2ccc4c(c2)OCO4)O3)cc1` (stereo not shown), the remaining activity was 124% (kinase activity, KinaseProfiler; 0.03 µM, species human; reference: control).

Repeated from above:
With `COc1cc(Nc2nccc(-c3cnn4nc(OC)ccc34)n2)cc(C(F)(F)F)c1` the remaining binding was 92% (binding, competition with immobilised ligand; 1 µM).
